Results gathered from unrelated publications.
Compare with care: the assays were run in different laboratories. Numbers after ± are the reported error.
Chain of UniProt P35869 (whole entry, looked up): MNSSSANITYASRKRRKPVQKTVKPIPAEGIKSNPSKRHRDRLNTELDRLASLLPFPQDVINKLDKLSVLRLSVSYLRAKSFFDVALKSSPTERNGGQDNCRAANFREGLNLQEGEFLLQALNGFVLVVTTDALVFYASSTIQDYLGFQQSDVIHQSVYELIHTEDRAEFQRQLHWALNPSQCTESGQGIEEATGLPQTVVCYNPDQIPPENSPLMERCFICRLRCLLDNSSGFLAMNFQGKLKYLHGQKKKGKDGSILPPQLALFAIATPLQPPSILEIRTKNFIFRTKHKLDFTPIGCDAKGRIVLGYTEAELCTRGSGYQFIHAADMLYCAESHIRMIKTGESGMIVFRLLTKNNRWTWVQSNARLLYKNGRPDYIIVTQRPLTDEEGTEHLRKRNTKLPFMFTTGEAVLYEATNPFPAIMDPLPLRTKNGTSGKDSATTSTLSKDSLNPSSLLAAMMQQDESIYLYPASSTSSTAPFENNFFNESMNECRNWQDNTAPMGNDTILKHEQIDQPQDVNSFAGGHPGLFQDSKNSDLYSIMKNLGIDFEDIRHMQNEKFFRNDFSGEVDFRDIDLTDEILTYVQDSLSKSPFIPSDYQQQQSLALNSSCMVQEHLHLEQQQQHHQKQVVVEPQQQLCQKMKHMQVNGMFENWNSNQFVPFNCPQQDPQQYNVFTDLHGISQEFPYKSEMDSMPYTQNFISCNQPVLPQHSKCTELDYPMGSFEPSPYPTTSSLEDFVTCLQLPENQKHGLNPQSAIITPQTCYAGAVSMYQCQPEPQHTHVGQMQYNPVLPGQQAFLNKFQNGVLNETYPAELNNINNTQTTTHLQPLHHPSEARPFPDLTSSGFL
Chain of UniProt P27694 (whole entry, looked up): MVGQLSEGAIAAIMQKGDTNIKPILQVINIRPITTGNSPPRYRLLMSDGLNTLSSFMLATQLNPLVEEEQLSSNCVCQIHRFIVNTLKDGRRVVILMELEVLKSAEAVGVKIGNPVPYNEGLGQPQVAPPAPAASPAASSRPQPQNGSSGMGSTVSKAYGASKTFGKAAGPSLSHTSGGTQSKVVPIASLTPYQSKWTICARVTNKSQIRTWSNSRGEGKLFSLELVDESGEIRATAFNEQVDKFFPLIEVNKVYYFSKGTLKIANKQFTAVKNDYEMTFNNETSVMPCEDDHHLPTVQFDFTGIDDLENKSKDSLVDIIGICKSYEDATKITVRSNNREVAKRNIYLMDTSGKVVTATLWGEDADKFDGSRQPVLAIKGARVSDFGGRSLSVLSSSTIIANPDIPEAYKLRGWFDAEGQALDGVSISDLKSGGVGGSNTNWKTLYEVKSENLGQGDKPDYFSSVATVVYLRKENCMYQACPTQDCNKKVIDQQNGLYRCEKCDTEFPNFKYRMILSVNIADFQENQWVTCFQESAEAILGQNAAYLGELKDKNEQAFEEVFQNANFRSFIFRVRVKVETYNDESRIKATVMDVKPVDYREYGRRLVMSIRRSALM
Chain of UniProt P25089 (whole entry, looked up): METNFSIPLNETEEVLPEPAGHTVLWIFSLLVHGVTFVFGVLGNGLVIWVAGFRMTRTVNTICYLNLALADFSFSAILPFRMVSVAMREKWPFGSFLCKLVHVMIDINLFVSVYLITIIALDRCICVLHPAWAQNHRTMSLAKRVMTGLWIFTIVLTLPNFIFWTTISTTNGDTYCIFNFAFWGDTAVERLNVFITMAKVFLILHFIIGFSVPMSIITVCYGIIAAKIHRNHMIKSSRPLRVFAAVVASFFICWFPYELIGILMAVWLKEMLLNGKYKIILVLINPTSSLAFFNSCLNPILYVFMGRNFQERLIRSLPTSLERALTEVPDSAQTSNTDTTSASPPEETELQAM
Chain of UniProt P02769 (whole entry, unmodified, looked up): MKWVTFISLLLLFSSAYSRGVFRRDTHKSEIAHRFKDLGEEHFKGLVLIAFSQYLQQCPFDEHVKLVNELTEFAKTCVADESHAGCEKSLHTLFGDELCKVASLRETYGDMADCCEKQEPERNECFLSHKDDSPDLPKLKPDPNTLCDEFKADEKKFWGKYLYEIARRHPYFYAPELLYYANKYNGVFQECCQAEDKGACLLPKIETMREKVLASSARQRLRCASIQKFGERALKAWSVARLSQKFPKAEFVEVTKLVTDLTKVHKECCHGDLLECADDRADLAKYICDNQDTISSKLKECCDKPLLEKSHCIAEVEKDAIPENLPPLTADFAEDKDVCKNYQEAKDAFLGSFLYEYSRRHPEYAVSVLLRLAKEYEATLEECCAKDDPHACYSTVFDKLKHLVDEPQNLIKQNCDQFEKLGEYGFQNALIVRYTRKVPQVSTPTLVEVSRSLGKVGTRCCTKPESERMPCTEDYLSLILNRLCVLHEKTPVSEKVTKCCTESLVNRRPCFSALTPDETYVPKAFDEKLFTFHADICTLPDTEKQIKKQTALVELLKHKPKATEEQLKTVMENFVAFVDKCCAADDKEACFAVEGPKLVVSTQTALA
Chain of UniProt P43220 (whole entry, looked up): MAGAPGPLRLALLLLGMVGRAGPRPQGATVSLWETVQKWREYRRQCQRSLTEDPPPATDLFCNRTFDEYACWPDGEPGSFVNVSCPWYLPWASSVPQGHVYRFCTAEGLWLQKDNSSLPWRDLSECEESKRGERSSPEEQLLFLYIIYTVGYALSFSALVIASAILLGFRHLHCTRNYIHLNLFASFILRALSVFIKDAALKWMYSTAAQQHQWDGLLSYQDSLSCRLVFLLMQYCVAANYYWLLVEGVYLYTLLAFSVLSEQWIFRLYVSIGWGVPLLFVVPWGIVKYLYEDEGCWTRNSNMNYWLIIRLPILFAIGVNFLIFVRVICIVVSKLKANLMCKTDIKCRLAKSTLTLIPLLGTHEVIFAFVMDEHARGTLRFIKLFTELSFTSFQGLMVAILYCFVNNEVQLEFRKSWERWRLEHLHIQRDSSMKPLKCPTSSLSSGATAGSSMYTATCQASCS
Chain of UniProt P10275 (whole entry, looked up): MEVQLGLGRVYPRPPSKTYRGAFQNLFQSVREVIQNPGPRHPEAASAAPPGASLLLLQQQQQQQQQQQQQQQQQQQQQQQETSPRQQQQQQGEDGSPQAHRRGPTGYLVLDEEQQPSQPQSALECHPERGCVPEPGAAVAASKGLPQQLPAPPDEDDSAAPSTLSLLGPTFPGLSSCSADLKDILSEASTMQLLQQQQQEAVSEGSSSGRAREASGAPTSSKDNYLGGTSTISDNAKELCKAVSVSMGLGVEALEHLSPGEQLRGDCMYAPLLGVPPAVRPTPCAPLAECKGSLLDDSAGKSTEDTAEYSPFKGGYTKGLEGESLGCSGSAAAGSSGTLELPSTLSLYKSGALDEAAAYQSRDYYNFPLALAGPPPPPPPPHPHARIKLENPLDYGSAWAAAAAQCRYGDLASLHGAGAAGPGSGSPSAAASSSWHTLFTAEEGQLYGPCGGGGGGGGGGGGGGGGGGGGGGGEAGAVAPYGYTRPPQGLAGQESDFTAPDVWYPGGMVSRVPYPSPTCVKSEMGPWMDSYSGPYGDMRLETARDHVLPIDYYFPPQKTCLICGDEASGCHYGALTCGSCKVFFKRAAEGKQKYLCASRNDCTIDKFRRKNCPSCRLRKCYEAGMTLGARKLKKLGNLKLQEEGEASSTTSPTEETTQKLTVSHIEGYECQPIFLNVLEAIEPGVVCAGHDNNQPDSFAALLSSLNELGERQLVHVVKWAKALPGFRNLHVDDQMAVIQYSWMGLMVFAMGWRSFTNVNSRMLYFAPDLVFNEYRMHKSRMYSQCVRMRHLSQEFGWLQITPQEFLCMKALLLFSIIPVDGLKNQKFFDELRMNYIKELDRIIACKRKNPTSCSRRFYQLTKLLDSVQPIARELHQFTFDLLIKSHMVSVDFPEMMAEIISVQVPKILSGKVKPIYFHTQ
Chain of UniProt P40337 (whole entry, looked up): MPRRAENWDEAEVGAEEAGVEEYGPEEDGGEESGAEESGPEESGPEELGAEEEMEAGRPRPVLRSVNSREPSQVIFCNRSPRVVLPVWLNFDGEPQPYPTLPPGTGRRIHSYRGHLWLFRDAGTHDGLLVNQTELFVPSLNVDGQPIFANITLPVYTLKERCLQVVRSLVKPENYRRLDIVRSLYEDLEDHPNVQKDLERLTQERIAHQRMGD
Chain of UniProt P31153 (whole entry, looked up): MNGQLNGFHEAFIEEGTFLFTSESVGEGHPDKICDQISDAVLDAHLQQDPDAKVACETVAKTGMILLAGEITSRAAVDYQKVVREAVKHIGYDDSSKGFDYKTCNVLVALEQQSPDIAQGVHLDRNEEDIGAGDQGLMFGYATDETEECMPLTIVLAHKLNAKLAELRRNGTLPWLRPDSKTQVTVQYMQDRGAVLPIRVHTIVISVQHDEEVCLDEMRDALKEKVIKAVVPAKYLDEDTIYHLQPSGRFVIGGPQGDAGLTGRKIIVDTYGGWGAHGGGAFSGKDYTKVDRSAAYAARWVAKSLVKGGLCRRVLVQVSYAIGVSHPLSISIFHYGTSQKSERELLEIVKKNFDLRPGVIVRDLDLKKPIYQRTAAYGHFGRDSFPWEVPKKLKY
Chain of UniProt P17931 (whole entry, unmodified, looked up): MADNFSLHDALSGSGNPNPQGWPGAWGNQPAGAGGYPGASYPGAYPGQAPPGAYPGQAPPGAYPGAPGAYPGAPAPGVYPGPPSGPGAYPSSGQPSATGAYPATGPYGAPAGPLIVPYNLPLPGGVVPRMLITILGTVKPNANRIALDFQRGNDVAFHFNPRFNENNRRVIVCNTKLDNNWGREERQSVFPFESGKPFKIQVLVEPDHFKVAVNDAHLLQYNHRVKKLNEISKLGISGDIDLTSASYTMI

O=c1c2sccc2n(CC2COc3ccccc3O2)c(=O)n1O (stereo not drawn)
residence time (Flap endonuclease 1 (Homo sapiens, UniProt P39748); SPR; Mg2+ bound): 3 min

CC[C@H](C)[C@H](NC(=O)[C@@H]1CCCN1C(=O)[C@H](CCCCN)NC(=O)[C@H](CO)NC(=O)[C@H](CO)NC(=O)[C@H](Cc1ccc(O)cc1)NC(=O)[C@H](CO)NC(=O)[C@H](C)NC(=O)[C@H](CO)NC(=O)[C@@H](N)Cc1ccccc1)C(=O)N[C@@H](CCC(N)=O)C(=O)N[C@H](C(=O)N[C@@H](CCC(N)=O)C(=O)N[C@H](C(=O)N[C@@H](CO)C(=O)N[C@@H](CC(N)=O)C(=O)NCC(=O)N[C@@H](CCSC)C(=O)N[C@@H](CC(=O)O)C(=O)N[C@@H](CC(N)=O)C(=O)N[C@@H](C)C(=O)N[C@@H](CO)C(=O)N[C@@H](C)C(=O)N1CCC[C@H]1C(=O)N[C@H](C(=O)O)C(C)C)C(C)C)[C@@H](C)O
binding stoichiometry (Peptide cyclase 1 (Gypsophila vaccaria, UniProt R4P353, S562A); ITC; concentration not given, pH 8.0, 25 °C): 1

Cc1ncsc1-c1ccc([C@H](C)NC(=O)[C@@H]2C[C@@H](O)CN2C(=O)[C@@H](N)C(C)(C)C)cc1
FP interference concentration (von Hippel-Lindau disease tumor suppressor, with elongin B/C (VHL, Homo sapiens, UniProt P40337); fluorescence polarization): ≥ 370 nM

CCC(=O)N(C)c1ccc(Cl)c(Cl)c1
fold activation (AHR (Homo sapiens, UniProt P35869); reporter gene, agonist; 100 µM; reference: vehicle): 26 fold

COc1c(F)c(F)c(C(=O)N[C@H]2[C@@H](O)[C@@H](CO)O[C@@H](S[C@@H]3O[C@H](CO)[C@H](O)[C@H](NC(=O)c4c(F)c(F)c(OC)c(F)c4F)[C@H]3OS(=O)(=O)O)[C@@H]2O)c(F)c1F
–TΔS (Galectin-3 (LGALS3, Homo sapiens, UniProt P17931); ITC; Kd fixed from FP): 1.72 ± 0.287 kcal/mol

CCCCCSc1nc2c([nH]1)c(=O)n(C)c(=O)n2C
remaining activity (Androgen receptor (AR, Homo sapiens, UniProt P10275); reporter gene, antagonist, PSA-luciferase; HeLa-A6; 10 µM, 24 h, with: 5 nM dihydrotestosterone; reference: maximal activity): 89%

COc1ccc(-c2cc(C(F)(F)F)nc(NCc3ccc(Cl)cc3)n2)cc1OC
Emax (GLP1R (Homo sapiens, UniProt P43220); cAMP accumulation, positive allosteric modulator; HEK-293T overexpressing GLP1R; with: EC20 GLP-1): 51 ± 7.4%

COc1ccc(F)cc1CC1(NC(=O)c2cc(N3C[C@@H](C)O[C@H](C)C3)ccn2)CC1
maximal surface localization (SLC6A8 (Homo sapiens, UniProt P48029, P544L); PathHunter trafficking; U-2 OS expressing SLC6A8; 24 h; reference: DMSO): 3.5 fold

Cc1ccc2ccc3ccc(C)nc3c2n1.Cc1ccc2ccc3ccc(C)nc3c2n1.O.[Cl-].[Cl-].[Cl-].[Yb+3]
ΔG° (Albumin (ALB, Bos taurus, UniProt P02769); fluorescence quenching; 301 K): -7.615 ± 0.00956 kcal/mol

Nc1ncnc2c1ncn2[C@@H]1O[C@H](COP(=O)(O)OP(=O)(O)NP(=O)(O)O)[C@@H](O)[C@H]1O
AdoMet burst amplitude (MAT2A (Homo sapiens, UniProt P31153); substrate; enzyme 25 µM, with: methionine): 24 ± 3 µM

CSCC[C@H](NC=O)C(=O)N[C@@H](CC(C)C)C(=O)N[C@@H](Cc1ccccc1)C(=O)O
activity (N-formyl peptide receptor 3 (Homo sapiens, UniProt P25089); CHO-K1; concentration not given): inactive

CC(C)C1=CC23CCC4C(C)(C(=O)O)CCCC4(C)C2CC1C(C(=O)O)C3C(=O)O (stereo not drawn)
Kd ratio (Replication protein A 70 kDa DNA-binding subunit, DBD-F (RPA1, Homo sapiens, UniProt P27694); fluorescence anisotropy competition; reference: full-length RPA over this construct): 3 fold

A few entries again:
CCCCCSc1nc2c([nH]1)c(=O)n(C)c(=O)n2C
remaining activity (Androgen receptor (AR, Homo sapiens, UniProt P10275); reporter gene, antagonist, PSA-luciferase; HeLa-A6; 10 µM, 24 h, with: 5 nM dihydrotestosterone; reference: maximal activity): 89%

COc1ccc(-c2cc(C(F)(F)F)nc(NCc3ccc(Cl)cc3)n2)cc1OC
Emax (GLP1R (Homo sapiens, UniProt P43220); cAMP accumulation, positive allosteric modulator; HEK-293T overexpressing GLP1R; with: EC20 GLP-1): 51 ± 7.4%
